Experimental data pooled from the literature.
Lines come from different studies, so protocols differ. Several values in a cell are separate wells, animals, samples, runs or records. ± gives the spread as reported.

`CC(C)n1nnc(-c2cc(O)cc(Nc3ncnn4ccc(CN5CCC(N)CC5)c34)c2)n1`: “free plasma concentration” 27 nM (from plasma protein binding; mouse, plasma; subcutaneous, 30 mg/kg, 90 min).
With `O=C(O)c1cccc(-c2nc(-c3ccccc3F)c3sccn23)c1` the remaining compound was 38% (mouse liver microsomes; 1 µM, 30 min).
Under “fluorescence intensity increase”, `CC(=O)Nc1ccc2c3c(cccc13)C(=O)N(CCN1CCN(CCCCN3C(=O)CN(/N=C/c4ccc(-c5ccc(Cl)cc5)o4)C3=O)CC1)C2=O` is recorded as about 30 fold (Britton-Robinson buffer; acidic pH; relative to: neutral pH).
`COc1ccc2c(c1)S(=O)(=O)N(CCCCCc1ccccc1)C(=O)O2` has a storage stability of over 6 months (solid, open to air).
`CC(C)n1nnc(-c2cccc(Nc3ncnn4ccc(CN5CCC(N)CC5)c34)c2)n1` gave an aqueous solubility of over 7960 µg/mL (pH 6.5).
`Cc1cc(-n2cc(C(N)=O)c(=O)c3cc(CCc4cnc(C)nc4)ccc32)sn1` gave an unbound fraction of 0.22 (rat, plasma).
With `Clc1ccc(-c2cc(NCCCN3CCCCC3)c3ccccc3n2)cc1` the remaining compound was 95.4% (human plasma; 1 h).
With `Cc1ncc(CCc2ccc3c(c2)c(=O)c(C(N)=O)cn3-c2ccc(F)cc2)cn1` the Kp brain/plasma was 0.05 (rat; iv, 0.2 mg/kg, 15 min, cassette dosing).
`CCCc1ccc(-c2ccc(C3=N[C@@H](C(=O)NO)CO3)cc2)cc1` gave a solubility of under 3480 µg/mL (aqueous buffer; pH 7.4).
Under “molar extinction coefficient”, `CCN(CC)c1ccc2c(-c3ccccc3C(=O)N(C)CCCC(=O)N[C@@H](CC(C)C)C(=O)N[C@@H](CCCNC(=N)N)C(=O)N[C@@H](CCCNC(=N)N)C(=O)N[C@@H](C)C(=O)N[C@@H](CO)C(=O)N[C@@H](CC(C)C)C(=O)NCC(=O)O)c3ccc(=[N+](CC)CC)cc-3oc2c1` is recorded as 37200 M⁻¹ cm⁻¹ (UV/Vis; phosphate buffer 25 mM; 100 µM, pH 7.4, at 560 nm).
For `CCOc1ccccc1Nc1nnc(SCC(=O)Nc2cc(F)ccc2F)s1`, the logD was 3.1 (pH 7.4).
With `O=C(NO)[C@H]1COC(c2ccc(OCc3cccc(F)c3)c(OC(F)(F)F)c2)=N1` the logD was 1.4 (octanol/buffer; pH 11).
`Cc1nn(C)c2c(C(C(=O)O)N3CC(OCCCCc4ccc5c(n4)NCCC5)C3)cccc12` (centres unmarked) — result for toxicity: “not toxic” (item: body weight, systemic pressure, liver and kidney markers; rat, Sugen/hypoxia model; dose not given).
With `O=C(OC(C(F)(F)F)C(F)(F)F)N1Cc2ccc(Br)cc2C1` the plasma concentration was 6 ± 1 ng/mL (male CD-1 mouse, plasma; oral, 8 mg/kg, 30 min, cassette dosing).
For `NC(=O)c1cn(-c2ccc(F)cc2)c2ccc(CN3CCCSCC3)cc2c1=O`, the unbound fraction was 0.074 (rat, plasma).
`O=C(NO)C1CSC(c2ccc(F)c(C(F)(F)F)c2)=N1` (centres unmarked) has a logD of 0.43 (octanol/buffer; pH 11).
`NC1CCN(Cc2ccn3ncnc(Nc4cccc(-c5cnco5)c4)c23)CC1` — result for “total brain concentration”: 1.8 µM and 1.84 µM (mouse, brain; intraperitoneal, 30 mg/kg, 90 min).
Under “volume of distribution”, `Cc1n[nH]c(C)c1CCOC(=O)c1cccc2c1oc(=O)n2C` is recorded as 0.61 L/kg (BALB/c mouse, plasma; intravenous, 2 mg/kg).
The dose-normalised AUC(0-last) of `CC(=NN=c1[nH]c2cc(F)c(F)cc2n1C)c1ccc(F)cn1` is reported as 172 mg·h/mL (plasma; oral, 10 mg/kg).
For `COc1ccc2c(c1)CN(C(=O)OC(C(F)(F)F)C(F)(F)F)C2`, the half-life was 11 min (human liver microsomes; together with: NADPH).
For `Cc1cc(NC(=O)c2cccc(NC(=O)C3=CC(C)(C)CCC3=O)c2)ccc1Nc1nccc(-c2cccnc2)n1`, plasma stability read “stable” (rat plasma; 1 µM).
Under body weight, `O=C1Nc2cccc(C#CC3(O)CCNCC3)c2/C1=C/c1cc2ccccc2[nH]1` is recorded as “no effect” (mouse, tumour model; intraperitoneal, 10 mg/kg daily).
`Nc1ncc(-c2ccc3ncnc(N4CCc5cc(F)c(Cl)cc54)c3c2)cn1` — result for “brain to plasma ratio”: about 9 (AUClast ratio; CD1 mouse; relative to: brain over plasma).
`Cc1ccc(OCc2ccc3c(c2)c(=O)c(C(N)=O)cn3-c2ccc(F)cc2)cn1` has an unbound fraction of 0.087 (rat, plasma).
The helicity of `CC[C@H](C)[C@H](NC(=O)[C@H](Cc1ccccc1)NC(=O)[C@H](CC(=O)O)NC(=O)[C@H](CCCNC(=N)N)NC(=O)[C@H](Cc1ccccc1)NC(=O)[C@H](Cc1ccccc1)NC(=O)[C@H](CCCCN)NC(=O)[C@H](CO)NC(=O)[C@H](CC(C)C)NC(=O)[C@H](CCCNC(=N)N)NC(=O)[C@H](CCSC)NC(=O)[C@H](C)N)C(=O)N[C@@H](CC(C)C)C(=O)N[C@@H](CCC(N)=O)C(=O)N[C@@H](CCCNC(=N)N)C(=O)N[C@@H](CCCCN)C(=O)N[C@@H](CCCCN)C(=O)O` is reported as 18.8% (circular dichroism; 20% TFE in PBS; 200 µM, pH 7.4, 25 °C).
`NC(=O)c1cn(-c2ccc(F)cc2)c2ccc(NCc3cccnc3)cc2c1=O` gave a fraction unbound of 0.095 (rat, brain homogenate).
`CCCSc1nc(N[C@@H]2C[C@H]2c2ccc(F)c(F)c2)c2nnn([C@@H]3C[C@H](O)[C@@H](O)[C@H]3O)c2n1` has an AUC of 102 µM·h (rat, male, plasma; oral, 60 mg/kg/day ticagrelor, week 52).
`CCCn1c(NCc2cccc(OC)c2O)nc2ccccc21` gave a half-life of 4.3 min (mouse, liver microsomes; 1 µM, 37 °C, together with: NADPH).
`CN(c1cccnc1)c1ccc2c(c1)c(=O)c(C(N)=O)cn2-c1ccc(F)cc1` gave an unbound fraction of 0.061 (rat, plasma).
`Cc1c(-c2ccccc2)nn2c(=O)cc(-c3cccc(-c4nnn[nH]4)c3)[nH]c12` — result for plasma level: “not detected” (mouse; 2 mg/kg, 10 h).
The logD of `O=C(NO)[C@H]1COC(c2ccc(F)c(C(F)(F)F)c2)=N1` is reported as -0.21 (octanol/buffer; pH 11).
With `COc1ccc(CC(=O)OCc2ccc(-n3cccn3)cc2)cc1F` the logD was 3.31 (pH 7.4).

For quick reference, copied from above:
`CC(C)n1nnc(-c2cccc(Nc3ncnn4ccc(CN5CCC(N)CC5)c34)c2)n1` gave an aqueous solubility of over 7960 µg/mL (pH 6.5).
The logD of `O=C(NO)[C@H]1COC(c2ccc(F)c(C(F)(F)F)c2)=N1` is reported as -0.21 (octanol/buffer; pH 11).
